Measurements of several laboratories.
Numbered parts are unrelated; each lists some results of a single study. Values joined by “and” are separate records of one study, mostly repeats; a detail may differ.
Chain of UniProt P28223 (whole entry, looked up): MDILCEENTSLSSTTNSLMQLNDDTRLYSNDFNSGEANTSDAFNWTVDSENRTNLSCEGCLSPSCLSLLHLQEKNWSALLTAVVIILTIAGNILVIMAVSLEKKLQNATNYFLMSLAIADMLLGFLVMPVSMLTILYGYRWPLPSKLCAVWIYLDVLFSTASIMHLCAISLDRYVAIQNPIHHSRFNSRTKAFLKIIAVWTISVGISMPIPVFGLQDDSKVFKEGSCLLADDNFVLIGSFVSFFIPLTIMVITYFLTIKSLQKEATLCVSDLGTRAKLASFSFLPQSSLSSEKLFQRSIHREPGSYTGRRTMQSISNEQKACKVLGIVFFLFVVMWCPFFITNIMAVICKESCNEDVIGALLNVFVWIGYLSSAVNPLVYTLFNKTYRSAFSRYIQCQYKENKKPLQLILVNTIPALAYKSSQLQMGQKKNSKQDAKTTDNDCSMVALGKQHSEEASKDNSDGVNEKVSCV

Block 1
Target: Calcium/calmodulin-dependent protein kinase type II subunit alpha (CAMK2A, Homo sapiens, UniProt Q9UQM7)
Chain of UniProt Q9UQM7 (whole entry, looked up): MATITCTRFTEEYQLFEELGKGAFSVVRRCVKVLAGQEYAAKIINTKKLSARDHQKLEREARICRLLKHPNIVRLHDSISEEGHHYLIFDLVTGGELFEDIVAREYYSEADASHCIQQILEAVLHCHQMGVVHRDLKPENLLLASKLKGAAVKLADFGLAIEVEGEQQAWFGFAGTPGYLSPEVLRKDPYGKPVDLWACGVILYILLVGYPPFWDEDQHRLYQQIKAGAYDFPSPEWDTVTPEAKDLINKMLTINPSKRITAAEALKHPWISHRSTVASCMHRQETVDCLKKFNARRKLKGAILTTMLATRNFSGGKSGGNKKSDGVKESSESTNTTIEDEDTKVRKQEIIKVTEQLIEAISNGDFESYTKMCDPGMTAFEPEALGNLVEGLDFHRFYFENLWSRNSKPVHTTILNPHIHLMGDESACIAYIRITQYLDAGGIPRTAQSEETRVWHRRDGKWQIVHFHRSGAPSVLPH
Observed: enzyme activity
Mode: inhibitor
Concentration: 10 µM
`O=C(O)/C=C/CCCCCCCCC(=O)O` gave an inhibition of -9%.
`O=c1ccoc2cc(O)cc(O)c12` gave an inhibition of 23%.
`COc1cc2cc(c1Cl)N(C)C(=O)C[C@H](O)[C@]1(C)O[C@H]1[C@H](C)[C@@H]1C[C@@](O)(NC(=O)O1)[C@H](OC)/C=C/C=C(\C)C2` has an inhibition of -21%.
With `COc1cc(O)cc2oc(-c3ccc(O)c(O)c3)c(O)c(=O)c12` the inhibition was 55%.
`Cc1cc(NS(=O)(=O)c2ccc(N)cc2)no1` gave an inhibition of -14%.
The inhibition of `COc1cc([C@@H]2OC[C@@H]3[C@H]2CO[C@H]3c2cc(OC)c(O)c(OC)c2)cc(OC)c1O` is reported as -39%.
`CC(C)=CCC[C@](C)(O)[C@H]1CC[C@]2(C)[C@@H]1[C@H](O)C[C@@H]1[C@@]3(C)CC[C@H](O)C(C)(C)[C@@H]3[C@@H](O)C[C@]12C` gave an inhibition of -50%.
`O=C(c1cc(Cc2n[nH]c(=O)c3ccccc23)ccc1F)N1CCn2nc(C(F)(F)F)nc2C1` has an inhibition of 0%.

Block 2
Target: Beta-1 adrenergic receptor (ADRB1, Homo sapiens, UniProt P08588)
Chain of UniProt P08588 (whole entry, looked up): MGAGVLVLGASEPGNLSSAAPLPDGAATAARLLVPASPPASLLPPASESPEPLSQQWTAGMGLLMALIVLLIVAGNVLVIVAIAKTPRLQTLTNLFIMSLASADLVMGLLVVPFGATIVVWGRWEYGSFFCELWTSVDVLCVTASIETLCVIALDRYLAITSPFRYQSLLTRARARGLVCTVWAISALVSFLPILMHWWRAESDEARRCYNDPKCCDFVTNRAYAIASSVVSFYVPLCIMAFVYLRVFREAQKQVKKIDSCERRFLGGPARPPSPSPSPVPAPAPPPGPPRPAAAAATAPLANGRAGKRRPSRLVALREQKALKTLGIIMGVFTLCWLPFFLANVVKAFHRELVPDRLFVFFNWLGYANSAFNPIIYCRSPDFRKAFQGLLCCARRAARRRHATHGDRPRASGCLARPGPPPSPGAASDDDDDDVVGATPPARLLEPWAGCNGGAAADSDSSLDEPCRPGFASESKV
Mode: agonist
The Emax of `N#Cc1ccccc1OCC(O)CNCCNC(=O)Nc1ccccc1` (stereo not drawn) is reported as 71%.
`COc1ccccc1N1CCN(CC2CN3C(=O)N(C)c4ccccc4C3=N2)CC1` (stereo not drawn) gave an Emax of 77.8%.
The Emax of `CC(C)NC[C@H](O)COc1ccc(O)cc1` is reported as 93.7%.
With `CC(C)(C)NCC(O)COc1ccccc1-c1ccccc1` (stereo not drawn) the Emax was 95.1%.
The Emax of `C=CCc1ccccc1OCC(O)CNC(C)C` (stereo not drawn) is reported as 99.7%.
With `C[C@H](N)[C@H](O)c1cccc(O)c1` the Emax was 98.2%.
With `COc1ccccc1N1CCN([C@@H]2[C@H](O)[C@H](CO)O[C@@H]2CN[S+](C)(=O)[O-])CC1` the Emax was 67.7%.
For `CC(C)(C)NC[C@H](O)COc1ccccc1C1CCCC1`, the Emax was 87.1%.

Other studies, line by line
The inhibition of `C[C@H](c1ccc(F)cc1)N(Cc1ccc(Cl)c(C(=O)O)c1)C(=O)c1cnc2ccccc2c1` is reported as -2.34% (HTR2A (Homo sapiens, UniProt P28223); ligand displacement; 10 µM).
For `CC(=O)N[C@@H](Cc1c[nH]c2ccccc12)C(=O)N[C@@H](CCC(=O)C=[N+]=[N-])C(=O)OC(C)C`, the sulfate level was 3.18e+06 a.u. and 3.17e+06 a.u. and 2.84e+06 a.u. and 3.28e+06 a.u. and 3.29e+06 a.u. and 2.82e+06 a.u. (UPLC-MS/MS; EL4 tumor, C57BL/6 CES1-/- mice, tumor; subcutaneous, 0.3 mg/kg DON equivalent daily, 5 days; higher = more metabolite).

Excerpt of the above (block 2):
The Emax of `C=CCc1ccccc1OCC(O)CNC(C)C` (stereo not drawn) is reported as 99.7%.
With `C[C@H](N)[C@H](O)c1cccc(O)c1` the Emax was 98.2%.
With `COc1ccccc1N1CCN([C@@H]2[C@H](O)[C@H](CO)O[C@@H]2CN[S+](C)(=O)[O-])CC1` the Emax was 67.7%.
